# Measurements of several laboratories.
# Each numbered part is a random draw from the data of one study; scales do not carry over between parts.

# Set 1 — method: RNA Bind-n-Seq; form: RNA; sample: in vitro; concentration: 1 µM; setting: whole 134-nt RNA, ends assumed; added: 150 mM KCl; baseline: input library; direction: higher = stronger binding
# Target: Ras GTPase-activating protein-binding protein 1, C-terminal RGG region (G3BP1, Homo sapiens, UniProt Q13283)
# Sequence of UniProt Q13283 (whole entry, looked up): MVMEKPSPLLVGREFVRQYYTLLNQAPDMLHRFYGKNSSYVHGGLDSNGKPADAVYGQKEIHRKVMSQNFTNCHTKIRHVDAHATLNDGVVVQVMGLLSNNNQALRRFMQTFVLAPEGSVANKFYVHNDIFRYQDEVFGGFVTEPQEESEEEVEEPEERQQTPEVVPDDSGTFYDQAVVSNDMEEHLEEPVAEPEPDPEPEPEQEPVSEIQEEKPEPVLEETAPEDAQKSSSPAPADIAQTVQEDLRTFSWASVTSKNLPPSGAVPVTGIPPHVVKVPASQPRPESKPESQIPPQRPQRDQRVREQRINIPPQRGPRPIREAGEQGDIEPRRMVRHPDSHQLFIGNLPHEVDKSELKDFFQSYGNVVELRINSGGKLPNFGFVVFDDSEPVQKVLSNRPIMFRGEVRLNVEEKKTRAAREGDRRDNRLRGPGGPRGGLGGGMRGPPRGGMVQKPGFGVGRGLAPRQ
# Constant ends, left off below: GGGAGUUCUACAGUCCGACGAUC … UGGAAUUCUCGGGUGUCAAGG
Oligonucleotide,log2 enrichment
CACAGACAACACGCACCCACACAGACACAGAGGGAAGGAAAUGGGAUGGGGACAGGGUGCACAGCAGGGCGGGGUAGGACCCCAGCCCCU,-0.0526
CUGUGCUACACAUCGUAUGUACCGAAUCGGCCCCCCCGGGGCCCCCCCGGGCCCCCCCGGGGAAAGUAUUAUGUUACGCCGUUCGGAUCU,-2.4
UGGCCCUGGUGGCAUGCGGGGAGGAAGAGGUGGCCUCAUGGAUCGUGGUGGUCCCGGUGGAAUGUUCAGAGGUGGCCGUGGUGGGGACAG,3.71
UGUGCUACACAUCGUAUGUACCGAAUCGGGCCCCCCCGGGGCCCCCCCGGGGCCCCCCCGGGAAAGUAUUAUGUUACGCCGUUCGGAUCU,-2.46
UUUGAGGUCAAACGCCGCGGGGAACUGCAGCUGAUUAAGAUCUUCCAAUCCUCGGUGUUUGAGGCCUUCCUCAAGGGCAGCACGCUGGAA,-1.75
AAGUCCUGUGCUACACAUCGUAUGUACCGAAUCGGUUUUUUUGGUGGUUUUUUUGGAAAGUAUUAUGUUACGCCGUUCGGAUCUGCACUU,-2.04
CAAGUCCUGUGCUACACAUCGUAUGUACCGAAUCGGGUUUGGUUUGGGUUUGGGGAAAGUAUUAUGUUACGCCGUUCGGAUCUGCACUUC,-0.755
CAAGUCCUGUGCUACACAUCGUAUGUACCGAAUCGGGUGGGAAAAAAAGGGAGGGAAAGUAUUAUGUUACGCCGUUCGGAUCUGCACUUC,0.971
UCAAGUCCUGUGCUACACAUCGUAUGUACCGAAUCGGGAGGGUUUGGGAAAGGGAAAGUAUUAUGUUACGCCGUUCGGAUCUGCACUUCC,1.78
UCCUGUGCUACACAUCGUAUGUACCGAAUCGGGGUUUUUGGGGAGGGGAAAAAAAGGGGAAAGUAUUAUGUUACGCCGUUCGGAUCUGCA,1.49
UAACUUUAGAGGAGGAUCUGAUGGAUAUGGCAGUGGACGUGGAUUUGGGGAUGGCUAUAAUGGGUAUGGAGGAGGAACUGGAGGUGGCAA,-0.802
AGUCCUGUGCUACACAUCGUAUGUACCGAAUCGGAAAAAGGGGAAAAAGGGAAAAAGGAAAGUAUUAUGUUACGCCGUUCGGAUCUGCAC,-1.36
UGUGCUACACAUCGUAUGUACCGAAUCGGUUUUUUUGGGGUUUUUUUGGGGUUUUUUUGGGGAAAGUAUUAUGUUACGCCGUUCGGAUCU,-0.819
GUCCUGUGCUACACAUCGUAUGUACCGAAUCGGGAAAAAAAGGGUUUUUGGGUUUGGGAAAGUAUUAUGUUACGCCGUUCGGAUCUGCAC,-0.329

# Set 2 — method: RNA Bind-n-Seq; form: RNA; sample: in vitro; concentration: not given; baseline: input RNA pool; direction: higher = stronger binding
# Target: RING finger protein unkempt homolog, zinc fingers 1-6, GST-SBP tag (UNK, Homo sapiens, UniProt Q9C0B0, residues 30-357)
# Setting: RNA with constant flanks, human and mouse sites, ends assumed
# Constant ends, left off below: GGGAGUUCUACAGUCCGACGAUC … CAACAGAGGAUUGAGCAUCA
# Construct (chain): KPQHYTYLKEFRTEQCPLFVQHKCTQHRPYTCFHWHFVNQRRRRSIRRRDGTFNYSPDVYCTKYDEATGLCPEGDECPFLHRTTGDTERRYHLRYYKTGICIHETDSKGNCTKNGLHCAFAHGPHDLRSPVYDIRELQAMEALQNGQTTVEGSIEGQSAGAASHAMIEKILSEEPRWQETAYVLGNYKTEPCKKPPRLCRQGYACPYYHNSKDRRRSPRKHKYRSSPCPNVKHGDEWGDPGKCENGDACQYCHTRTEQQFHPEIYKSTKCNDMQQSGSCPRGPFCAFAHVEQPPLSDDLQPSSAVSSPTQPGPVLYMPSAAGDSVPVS
Oligonucleotide,bound/input enrichment
CAGGGCGUGAUCAAGUACAUGGGGCCGGCAGGGAGUAAGACCCUGCAGAGUGUUGUGCUUAGCAAGAUGAACUUUGAGUCUUUCGUGAAAGAUCUUCUUCUGGUUCGCCAGUAUCGAGUU,0.107 ratio
CCUUGGCCGACUACACCAGAGAAUACACAUUCAGUGACAUCUUGCUGAUGCUGUGCUUGCUAGUACUGCCAAGGCGAGUGUGUGGCCUUUCUUUCCAGCUCUCUGCAGAGAUGCUGGGGA,0.0953 ratio
UCUUGUUCAUCCCCUUGUAUUGUUUCUCCUUAUUGCUACAGUUAAUAGACAAAAAGGUAACUUAGACCCUUUUUUUUUUUUGGUUUGGCUUGAUAUUGUUUAGUAAAUGGCUAUACAAGU,10.9 ratio
AUGUGUGUGUGUGUGUGUGUGUGUGUGUGUGUGAGUGUGUGUGUGUGUGUGUGUGUGUGUGAGUGUGUGUGUGUGUUCUCUACAUGGGGGUGCCAGGGAUUCUGUUCCAUUUUAAAUGGG,1.32 ratio
GCAGAUGCUGAGGUUGCCAGGAGGAAAUCAGUCCCAUCAGAGACUGUGGUUGAGGAUAGUCGUACUGGCUUGCCCCCGGUAACUGAUGAAAACCAUGUCAUUGUAAAAACGGACAGUCAG,0.127 ratio
GCUGAAAAUGAAGAAGAGGCAGCUGAUGUCUGGUACAACUUGGGACAUGUAGCUGUGGGAAUAGGAGAUACAAAUUUGGCCCAUCAGUGCUUCAGGCUGGCUCUGGUCAACAACAACAAC,0.897 ratio
GACUGGGAGAUGUCACAGUCUUCCAUAAAGAGCUCGAUUUGUCUCCUGAGAGGGAAGAUCUAUGAUGCUUUAGAUAAUCGCACCCUGGCUACCUACAGUUACAAAGAGGCUCUGAAACUG,0.164 ratio
CAGGACCCCCCUCUCGCUCCCCCUCAUCGGCGGCGUCGUAGCCGCCAACAUCCCGGGCCGCUGCCUCCAACGAAUGCCGCCCCAACCGUCCCGGGCCCUGUUGAACCUCUGCUCCUGCCG,0.291 ratio
CAAAACUUUGAAAACAUUCAGCUGUCAAAAGCUAUGGAAAUUCUUAGAAAUAACACACAUUUAUCUAUCACUGUGAAAACCAAUUUAUUUGUAUUUAAAGAACUUCUAACAAGAUUGUCA,0.761 ratio
AGCUGGGAUUACAGGCAUGCGCCACCAUGCCCGGCUAAUGUUGUAUUUUUAGUAGAGAUGGGGUUUCUCUCAUGUUGGUCAGGCUGGUCUCAAACUCCCAACCUCAGGUGAUUCGCCCGC,0.603 ratio
GUUGUACCGAAAGGCAAAGGAGAACAGAUUGCAAGGGAGCAUGGUAUUAGGUUUUUUGAGACUAGUGCAAAAGCAAAUAUAAACAUCGAAAAGGCGUUCCUCACAUUAGCUGAAGACAUC,1.88 ratio

# Set 3 — method: competition protein-binding microarray; form: double-stranded DNA, one strand shown; sample: in vitro; concentration: 2 µM; added: Cbf1 competitor, 0.05 µM; direction: higher = stronger binding; constant ends, left off below: … GTCTTGATTCGCTTGACGCTGCTG
# Target: Phosphate system positive regulatory protein PHO4, full length, GST-tagged (PHO4, Saccharomyces cerevisiae, UniProt P07270, residues 1-312)
# Setting: whole 60-bp probe, lowest competitor level
# Residues (chain): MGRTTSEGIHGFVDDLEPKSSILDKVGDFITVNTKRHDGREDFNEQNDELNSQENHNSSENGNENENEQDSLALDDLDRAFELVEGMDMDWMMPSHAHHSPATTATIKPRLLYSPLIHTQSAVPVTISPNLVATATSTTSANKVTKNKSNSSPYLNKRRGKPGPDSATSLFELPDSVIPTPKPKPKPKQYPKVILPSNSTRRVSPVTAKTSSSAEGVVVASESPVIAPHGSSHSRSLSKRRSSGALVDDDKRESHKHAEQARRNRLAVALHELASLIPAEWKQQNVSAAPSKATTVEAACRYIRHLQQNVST
Oligonucleotide,fluorescence intensity [a.u.]
GATCTGGTCGTACGGCCCGTGCTTTCAGAATTGGTG,10100
CGACACAAAAAAGAACCCGTGCAAATATTATATCCC,10200
GGAGCAAATAGTTGAAAGGTGTGCCATAAGAAGGTG,7490
CTAACGAAGGTTTCACACGTGTTTTACAAGCCAAGT,19100
CATACCCAACCTTGTGGCGTGGGTGAAGATATTTGT,8100
GTCTTGTCTCATTGGAATGTGGGTGTCCCCACTTCA,6390
AAATTACTAAGTTGTCACACCACTTACCCCGTATGA,5040
TTCTTTGCCCTCTTGCTCGTGTGGATTCCTTTCCGC,6490
AGATTCGAATTACCATCCGTGACGGACATCTTATTT,3470
TGCGCAACAACTTGTATAGTGGGTGTATGTCTAGAA,5240
GGAAAGCAACGAGTGATCGTGACGGCATAATTGCCT,6110
CGCGTTTCTTTGTTCCACGTGCTAAGCGCCTCTCTT,17800
AACTAAGAGAAATTGAACGTGGTCGCGATCTTTTAG,10400
CTTTCCCGATCTTGTCACACGACTTTAGCACATTTG,6260
CGTCCTAGTGATTGTCACGCAACTTCCATGAGGAAG,5560
CATACCCAACCTTTTCACGTGTACTAAGATATTTGT,14300

# Set 4 — method: RNA Bind-n-Seq; form: RNA; sample: in vitro; concentration: 365 nM; baseline: no-protein control; direction: higher = stronger binding
# Target: RNA binding protein fox-1 homolog 2, RRM domain, GST-SBP tag (RBFOX2, Homo sapiens, UniProt O43251-10, residues 100-194)
# Setting: natural RNA segment, single round, ends assumed
# Constant ends, left off below: GGGAGUUCUACAGUCCGACGAUC … UGGAAUUCUCGGGUGCCAA
# Residues (chain): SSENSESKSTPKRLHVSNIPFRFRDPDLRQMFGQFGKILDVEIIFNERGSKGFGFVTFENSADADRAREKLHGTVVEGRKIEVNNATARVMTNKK
Oligonucleotide,RBNS enrichment (R)
UGCUAUACCCCUCUCCAUUACAGAAACUGGUCCUGUGAGCUAAAAAGUGGGUGUGACUCGUGACUGGGGAGCACUAGGACUGAACACGAAGUGAGGGGUACAGUGUGGGU,0.33
UCACACGGCUGAGAGUCCCCUUUCCAGGCAGGGCCAGCAUGUGUAGAAUAUCUUUCAGAAUAUGGUUUCACCAUGAAACAGGGGUGGUAGAUUUAUUCCCUUGUGUCAGG,4.58
GGGAGAGCUGAGUGCUGAGCCUUGGGAGCCCCUGCCAGCCACGUGCACCUGUGGACAGUGGGUGGGGCACUACUCCCCACUCAGAGCACAAAUGCAACCCCUCCCCUACA,0.512
CAGUCUCUUUAACGACAGCUAUAGAUGCUGGAUGUGUUCCGAUGACUUAGGUCAUGUCACAUUGUUGAAGCCAUUCAUUCUUGAGAUGAUUCUGUACAGGAGUGCUCCUA,0.204
CUGGACCUCCAGCUGGGAGGUCAUCCUCCCUCUAGCUUGUAUGUCCUGUACUUUGCAACCCCUAAGCUUCAAACCUCUUGCUCAAGACCCAAGACUUAUUCAAAGCUGUG,1.15
CUUGCAUAAAGAAGGUGUGGCCUCUGAGCUCUCAAGGGCCCCAGUUGCCACCAACCACCACCACAGGUGGCCUUAUGGCUCUUCCUGGAUGUUCGAUUCAUGUAAGUGAC,0.253
UGUAAAUGCUGCCCUCUGCCGCCUUUGUUUUGAGAUGCAGUUUAAACUCCCUCUGGCUGCUGCUGCUGCUUUUUGGUGUCCCGACAUACCUACGCCCCCGUUUUAUGGGU,0.334
AUAGAAACUUAGGCACUUUGCUGACUCCUUUCUGAACUAUCAGACUGGCCAUUUGAAAGCCUAGUAUUUAUUUGUAUGUCAAUAUUUGCCCAGUUGAUGUCCUAUGUAGA,0.433
AUGCCGCAGUUGGACAGCAUAGGACGGCUUGGUUCUGUUUCAUUGUGUUUGACAAUGUUGCAGUUUAAAUGAUAAUGUUUAAAUCAAUUGGUACUUGCCUGUAGUGUUAA,2.59
UUUCUGCACUGCAACUGUGUGAUUGAAAAAUGAGAUGUUCAUCCAAGCAGUCAAGCCACAGAAACCCAGCAUGUCCCUGUCACAAUCUCAUGGGCACCUUGAUCAUGUCU,4.82
UUCUUUGCCUUUCAAAACAAAAGCAAAACACAGUGAACUUCACCACGGAGCUGCACAGCGUGGGGAACUCAUCCAUCACUUUCAAAAUUAGAGUCAUUUGAUCCAAGUUG,0.576
AGUUUUGAUAGACUCUGAGGAUCAUAUGAACAGGACAUUUUUCAUUUGUGAAUUUAAUGCUAUCUUGUCAAGGUACUUGCUUGUGUCUGAACUCUAGUGCACUUAUCAUU,4.12
